Assay results of several laboratories.
Every numbered part comes from another study and shows a few of its results, in no order. Changes are numbered by the printed parent chain.

Series 1
Target: Histone acetyltransferase KAT6A, winged helix 1, GST fusion (KAT6A, Homo sapiens, UniProt Q92794, residues 1-85)
Technique: protein binding microarray
Molecule type: double-stranded DNA, one strand shown
Matrix: in vitro
Tested at: not given
Notes: 8-mer, flanks averaged, mean of 2 arrays, mostly near background
Reference: not given
Direction: higher = stronger binding
Target sequence (chain): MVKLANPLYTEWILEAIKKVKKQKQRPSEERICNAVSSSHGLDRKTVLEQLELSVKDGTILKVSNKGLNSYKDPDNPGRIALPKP
The E-score of `ATGGCGAA` is reported as 0.0259.
The E-score of `TCCTTAGA` is reported as -0.205.
With `CCCCCTGA` the E-score was -0.0505.
For `ATGTCGCG`, the E-score was 0.284.
With `AAACATAC` the E-score was -0.0599.
The E-score of `TCATGTAA` is reported as 0.0131.
`CGTAAACA` has an E-score of 0.111.
With `CATCCCAC` the E-score was -0.0241.
`ATATAGTG` gave an E-score of -0.0236.
With `ACTGCATG` the E-score was -0.119.
`AAGATTGT` has an E-score of -0.245.
For `AGGGAACA`, the E-score was -0.188.
`GTATACGA` gave an E-score of -0.102.
The E-score of `ATCAAAAT` is reported as -0.248.
The E-score of `CACTTACC` is reported as 0.0631.
`TAGCGCAA` gave an E-score of 0.254.
`CCATTAGC` has an E-score of -0.0489.
For `AGACCCCA`, the E-score was -0.0918.

Series 2
Target: CCNF, cyclin fold, Cln2 fusion (human)
Technique: yeast growth competition, sequencing
Matrix: yeast
Notes: strong parent motif
Reference: not given
Direction: higher = stronger binding
Starting sequence: RB1 docking peptide (human); PKPLKKLRFDIEG
For `R8I`, “normalised enrichment score” read 2.58.
Under “normalised enrichment score”, `F9E` is recorded as 0.275.
Under “normalised enrichment score”, `K5R` is recorded as 6.33.
`L4N`: “normalised enrichment score” 4.04.
Under “normalised enrichment score”, `P3V` is recorded as 1.56.
Under “normalised enrichment score”, `I11R` is recorded as 0.00129.
`D10R` — result for “normalised enrichment score”: 2.96.
For `P3L`, “normalised enrichment score” read 1.82.
`P1W`: “normalised enrichment score” 2.02.
For `K5W`, “normalised enrichment score” read 1.59.
Under “normalised enrichment score”, `F9P` is recorded as 0.354.
For `G13A`, “normalised enrichment score” read 2.14.
`F9Y`: “normalised enrichment score” -0.16.
For `F9T`, “normalised enrichment score” read 0.334.
`P3I` — result for “normalised enrichment score”: 1.39.
`L7Y` — result for “normalised enrichment score”: -0.0235.
Under “normalised enrichment score”, `D10H` is recorded as 1.52.
`K6R` — result for “normalised enrichment score”: 1.33.

Series 3
Target: ABI1, truncated, D143A, DHFR fusion (Arabidopsis thaliana)
Technique: DHFR PCA, deep sequencing
Matrix: yeast
Notes: methotrexate growth selection, single substitutions
Added: (+)-ABA 0.39 µM
Reference: wild-type fitted maximum
Direction: higher = stronger binding
Starting sequence: PYL1, truncated, DHFR fusion (Arabidopsis thaliana); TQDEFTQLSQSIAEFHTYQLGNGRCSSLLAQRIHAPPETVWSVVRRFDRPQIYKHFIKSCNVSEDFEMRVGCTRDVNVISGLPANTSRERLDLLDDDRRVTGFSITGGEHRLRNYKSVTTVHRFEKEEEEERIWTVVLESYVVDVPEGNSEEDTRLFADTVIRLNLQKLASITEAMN
Under “relative binding score”, `P146M` is recorded as 21.9%.
`N77T`: “relative binding score” 76%.
Under “relative binding score”, `E147D` is recorded as 55.3%.
Under “relative binding score”, `K54H` is recorded as -10.5%.
`K58F` — result for “relative binding score”: -9.03%.
For `R155F`, “relative binding score” read -22%.
Under “relative binding score”, `E64Q` is recorded as 46.7%.
Under “relative binding score”, `I52V` is recorded as 62.9%.
Under “relative binding score”, `Q7W` is recorded as 46.2%.
For `L8W`, “relative binding score” read 16.6%.
Under “relative binding score”, `Q7T` is recorded as 41.6%.
For `K54N`, “relative binding score” read -8.47%.
`R155A` — result for “relative binding score”: -1.08%.
For `S87V`, “relative binding score” read 59.8%.
`V44Y` — result for “relative binding score”: -13%.
Under “relative binding score”, `Y115H` is recorded as 9.53%.
For `S140N`, “relative binding score” read -9.78%.
For `I172V`, “relative binding score” read 59.1%.
`E129Y`: “relative binding score” 24.4%.
Under “relative binding score”, `S63L` is recorded as 8.13%.
`E127L`: “relative binding score” 45.8%.
For `V62N`, “relative binding score” read -0.405%.
`E128T` — result for “relative binding score”: 48.2%.
For `Q19S`, “relative binding score” read 47.6%.
`D92R` — result for “relative binding score”: 2.65%.

Series 4
Target: RNA binding protein fox-1 homolog 2, RRM domain, GST-SBP tag (RBFOX2, Homo sapiens, UniProt O43251-10, residues 100-194)
Technique: RNA Bind-n-Seq
Molecule type: RNA
Matrix: in vitro
Tested at: 365 nM
Notes: natural RNA segment, single round, ends assumed
Reference: no-protein control
Direction: higher = stronger binding
Construct (chain): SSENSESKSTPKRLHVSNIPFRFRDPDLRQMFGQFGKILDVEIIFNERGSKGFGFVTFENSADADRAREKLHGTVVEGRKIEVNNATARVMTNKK
For `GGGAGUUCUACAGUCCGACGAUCUGACUGGAGCCACAGAUACAGAAUCUGUAUUGUUCUUACUGAAACACAGCAUGGAAUUAACAUUAAACUUAAAUAAAACAAACCUAAAUUAAAAAUGCCAAAUAUCGCGCUGGAAUUCUCGGGUGCCAA`, “RBNS enrichment (R)” read 1.13.
Under “RBNS enrichment (R)”, `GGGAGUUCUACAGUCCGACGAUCAGGGCUAAGGCACAGUAUUUGAAACCAUUAAAUGUGUUCUUUGGAGAAGUCUGGUUAACAUCCAUCAGCAGAAUGAGUUAAAACACACAAUGAAUUCAAUCUAUCAGGAUUGGAAUUCUCGGGUGCCAA` is recorded as 1.09.
`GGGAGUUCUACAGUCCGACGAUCCAGGAGGCUGCGUGACAUGGGCCACUCUAGGACAGGUCAUCCUCCCCGAGUCCCUGCUGCUGCGCUCCUUUGCAUCCCUGGCCAGUGACCUUGUAUUUAUGAGGCCUCUGUGGAAUUCUCGGGUGCCAA` — result for “RBNS enrichment (R)”: 0.855.
`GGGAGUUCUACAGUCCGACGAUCGAGGUGCCAUCUCUACCUCUGACACAGCCUGUCUGCCUUGAGACUGAGGAAGGCACAGGCAAGCAAGGAGCCAUGAACCACAGGGCCCCAGCCAGCACAGGAUUUGUCCUUGGAAUUCUCGGGUGCCAA` — result for “RBNS enrichment (R)”: 0.422.
For `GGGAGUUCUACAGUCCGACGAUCCCCCAAGCCUCCACGUCUAACGGGCUCCCGAAGUGCUGCUGCUUCCAAGCAAGGAUUUUGCACCGCAGCUGCUUGGAUGUAUUUAAACUCCUCAUGGUUCAGAUAGCUAUUGGAAUUCUCGGGUGCCAA`, “RBNS enrichment (R)” read 1.09.
`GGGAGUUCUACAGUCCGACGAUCCAUGCCCACCUGUAUUCCCUGUCCCCUUCCUUCAUGAAGGCAUCUCCAGGCAAGGAAAACUGAAGUCAUUGGCCCGAUACAAAACAUUUCCUGCAACGAAGGAGGUGGUGUGGAAUUCUCGGGUGCCAA`: “RBNS enrichment (R)” 0.392.
For `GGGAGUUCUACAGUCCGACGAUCAUUAAAAGAAUCUUGUAACUUUAUUCUUUUUUUUCUCCUGCUGAAACAAAUUAAACCAAUCAUAUGGACAUUUGGAUUGUCUGUGUUGGCCGCUCACCUAGUGCCCCAGGUGGAAUUCUCGGGUGCCAA`, “RBNS enrichment (R)” read 0.559.
For `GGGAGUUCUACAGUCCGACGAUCUUGCAUGAUGAGAGAGGAAGGGUUUGCCAUAGAGAGCUGAAAUGGGGAUUUAGACUGAUGUGUGCAUUGGCUGAGCUGAACCUUGGUCUCUUGAUGUCCCUGGAGAGCUGUGGAAUUCUCGGGUGCCAA`, “RBNS enrichment (R)” read 15.9.
For `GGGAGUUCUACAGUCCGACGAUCAUGGUACCCAAGUUCACAUUUUAUUUUUAUUUUUUAUCAAAUUCUUAGAAAGAGUCAUAAGAAAAAAAAAAAGACAUUUUAUUGUAAAUAACUUACAAGUGAAAUUAAGAUGGAAUUCUCGGGUGCCAA`, “RBNS enrichment (R)” read 0.508.
Under “RBNS enrichment (R)”, `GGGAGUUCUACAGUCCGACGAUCAGGGUUUGACUCCCUGGACACUCUGAGUGGGGUGGUCAUCCAGGCAGUACUAUUAAUGACCUCCCCAGGGCAGGCAUGAGUUGUGUCCUGAGUGGAACAUCUGGCCAUGCUGGAAUUCUCGGGUGCCAA` is recorded as 2.32.
Under “RBNS enrichment (R)”, `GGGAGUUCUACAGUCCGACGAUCCCGCCCCUCCUCCAUACCCCAGGGAUAAUUUUUCCUUCAAACCUUCCCUUUCCAAGGGACACUGGGUUUGCAGACAGCAAGGCUAUGUGGCAGAGAAGAAAAAGUCCAGCUGGAAUUCUCGGGUGCCAA` is recorded as 0.367.
`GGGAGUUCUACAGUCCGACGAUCUCAUCCAGCUCGUCCAAAGGCUUCAGGGAUGGAAACAAACCAGCUCGUCUCAGAGGCCAGCAAGCUGGGGCCUGUCCGCCACGGUGCCCUGUGCACCUUUGGGCUGCCCUUGGAAUUCUCGGGUGCCAA` — result for “RBNS enrichment (R)”: 0.225.

Series 5
Target: Interferon regulatory factor 5, full length, phosphomimetic (IRF5, Homo sapiens, UniProt Q13568-2, residues 1-514, S451D/S453D/S456D/S462D)
Technique: protein-binding microarray
Molecule type: double-stranded DNA, one strand shown
Matrix: in vitro
Tested at: 940 nM top
Notes: 60-bp whole probe
Added: salmon DNA 0.4 mg/ml
Reference: random background probes
Direction: higher = stronger binding
Constant ends, left off below: GCCTAGCAC … GTCTTGATTCGCTTGACGCTGCTG
`GACGGTCGCCTTATCCTGACGTGCTAG`: “fitted relative affinity” -0.0753 z-score.
`TTGGTTTCTGGTTTATTGAGGTGCTAG`: “fitted relative affinity” 6.16 z-score.
For `GACTGTTCCGGTTTCGGGACGTGCTAG`, “fitted relative affinity” read 4.28 z-score.
For `TCAAGTTTCTCCTTTCGACTGTGCTAG`, “fitted relative affinity” read 3.67 z-score.
`CGCTTTTTTTTTTTTTTTTTGTGCTAG`: “fitted relative affinity” 0.865 z-score.
`GACGGTACCGGACTGGGGACGTGCTAG` — result for “fitted relative affinity”: -0.35 z-score.
For `CATTTTAGTAGTTTCTAAAAGTGCTAG`, “fitted relative affinity” read 0.708 z-score.
`TTAGGTATCGGGTATCCGTTAGTGCTA` — result for “fitted relative affinity”: 6.87 z-score.
`CAGTAGATGGCGCCTGAGAGGTGCTAG`: “fitted relative affinity” -0.437 z-score.
Under “fitted relative affinity”, `GACGGTCTCCTTCTCCTGACGTGCTAG` is recorded as 0.386 z-score.
For `CCCACCTCTCACGGGCTTGTGTGCTAG`, “fitted relative affinity” read 0.364 z-score.
`TTAGATACCGGGACTGGATTAGTGCTA`: “fitted relative affinity” -0.201 z-score.
`TCAAAAGTGTTTCTCAAACTGTGCTAG` — result for “fitted relative affinity”: -0.271 z-score.
For `ATGCTTCTGGTCTTCTGGGCGTGCTAG`, “fitted relative affinity” read 0.289 z-score.
For `GACGGTTTCGACACTGGTGACGTGCTA`, “fitted relative affinity” read 7.11 z-score.
Under “fitted relative affinity”, `GCCACTTTCCATTTCTGTTTGTGCTAG` is recorded as 2.04 z-score.
`GACGGTATCGGAATGGGGACGTGCTAG`: “fitted relative affinity” 3.65 z-score.
`GTCGATCTCAGTATCGAGACGTGCTAG` — result for “fitted relative affinity”: 3.53 z-score.
Under “fitted relative affinity”, `GACGGTTTGGGGTTTCGGGACGTGCTA` is recorded as 2.39 z-score.
`GAATTTCCCACTTTCAGTTCGTGCTAG` — result for “fitted relative affinity”: 2.84 z-score.

Repeated from above (series 3):
Under “relative binding score”, `S63L` is recorded as 8.13%.
For `S140N`, “relative binding score” read -9.78%.
`R155A` — result for “relative binding score”: -1.08%.
For `I172V`, “relative binding score” read 59.1%.
`K58F` — result for “relative binding score”: -9.03%.
Under “relative binding score”, `Y115H` is recorded as 9.53%.
`E128T` — result for “relative binding score”: 48.2%.
Under “relative binding score”, `E64Q` is recorded as 46.7%.
For `V62N`, “relative binding score” read -0.405%.
`D92R` — result for “relative binding score”: 2.65%.
`E129Y`: “relative binding score” 24.4%.
For `Q19S`, “relative binding score” read 47.6%.
`V44Y` — result for “relative binding score”: -13%.
